Measured values of several laboratories.
Numbers after ± are the reported error.

SMILES | assay | test system | setting | scale | measurement | value
N#CCC1CCN(c2nc(Nc3ccc(N4CCC(O)CC4)cc3)c3c(=O)[nH]ncc3n2)CC1 | Olink multiplex, refers to: CD163 | human, serum | 20 mg, day 15 | baseline: baseline | fold change from baseline | -1.2
C[C@H]1C[C@H]2CSC(N)=N[C@@]2(c2nc(NC(=O)c3ccc(OC(F)F)cn3)cs2)CO1 | refers to: Aβx-40 | healthy adults, plasma | 15 mg once daily, day 14 | baseline: placebo | percent change from baseline | -51.4%
OC(CCN1CCCCC1)(c1ccccc1)C1CC2C=CC1C2 (centres unmarked) | resting-state EEG | healthy elderly humans | oral, 4 mg, eyes open, LS mean |  | EEG theta power, O2 Pz | 4.7 µV²
O=C(O)CNC(=O)Cc1ccccc1 |  | ventricular cardiomyocytes, C57BL/6 mouse | dose not given, 0.732 s |  | sarcomere length | 1.72 µm
N#Cc1ccn2c(-c3ccncc3)c(-c3ccc(F)cc3)nc2c1 | kinase binding, competitor, MIB/MS competition, refers to: GIN4 | Candida albicans cell lysate | 10 µM | baseline: DMSO | log2 fold change | -0.141
COc1ccccc1[C@H](Cn1c(=O)n(C(C)(C)C(=O)O)c(=O)c2c(C)c(-c3ncco3)sc21)OC1CCOCC1 | [1-13C]acetate infusion, isotopomer analysis | overweight or obese healthy men, plasma VLDL-TG palmitate | oral, 20 mg single dose, 0 h relative to dose, fasted baseline |  | fractional hepatic DNL | 7.34 % new palmitate
Cc1cc(Nc2ccc(S(F)(F)(F)(F)F)cc2)n2nc(C(C)(F)F)nc2n1 | refers to: dihydroorotate | female CD-1 mice, pooled urine | oral, 300 mg/kg daily, 0-8 h after dose 10 |  | DHO concentration | 4.46 ± 0.516 µM
CC(C)NCC(O)c1ccc(O)c(O)c1 (centres unmarked) |  | ventricular cardiomyocytes, C57BL/6 mouse | dose not given, 0.2 s |  | sarcomere length | 1.49 µm
CN[C@@H]1COc2c(S(=O)(=O)NC(=O)Nc3c4c(cc5c3CCC5)CCC4)cnn2C1 | refers to: IL-18 | human participants, whole blood ex vivo | 900 mg single dose, 8 h, IL-18, circulating, adjusted for, with: LPS/ATP | baseline: baseline | inhibition | 108%
C[C@H](Oc1ccc(Br)cc1-c1ccon1)C(=O)O | last response peak | human, tibialis anterior muscle | 100 mg, 30 Hz, single ascending dose |  | difference from placebo | 20.4%
Cc1n[nH]c2ccc(-c3cc(OC[C@@H](N)Cc4ccccc4)cnc3-c3ccoc3)cc12 | kinase binding, competitor, MIB/MS competition, refers to: YAK1 | Candida albicans cell lysate | 10 µM | baseline: DMSO | log2 fold change | -2.8
NC(=O)c1cnc2[nH]ccc2c1N[C@@H]1[C@@H]2CC3C[C@H]1C[C@@](O)(C3)C2 | CD8+ CD28+ naive T cells, flow cytometry | Caucasian humans, peripheral blood | 60 mg single dose | baseline: baseline | percent change | -0.52%
N#Cc1ccc2c(-c3ccncc3)c(-c3ccc(F)cc3)nn2c1 | kinase binding, competitor, MIB/MS competition, refers to: IRE1 | Candida albicans cell lysate | 100 nM | baseline: DMSO | log2 fold change | 0.445
C[C@@H](NC(=O)N1C(=O)[C@H](Cc2ccnc(N)c2)[C@H]1C(=O)O)C1CCCCC1 |  | human | iv infusion, 2.25 mg/kg/h, 24 h, unit not given | baseline: baseline | PT AUEC | 128

For quick reference, copied from above:
SMILES | assay | test system | setting | scale | measurement | value
CC(C)NCC(O)c1ccc(O)c(O)c1 (centres unmarked) |  | ventricular cardiomyocytes, C57BL/6 mouse | dose not given, 0.2 s |  | sarcomere length | 1.49 µm
